Measurements gathered from unrelated publications.
Protocols differ between the studies behind these lines. ± marks the error that the study gave.

| SMILES | assay | system | setting | Tmax [h] |
| --- | --- | --- | --- | --- |
| Nc1cc(F)ccc1NC(=O)c1ccc(CNC(=O)/C=C/c2cccnc2)cc1 | – | Japanese patients, plasma | oral, 30 mg twice weekly, cycle 1 day 25, median | 5 |
| CCC(CC)O[C@@H]1C=C(C(=O)O)C[C@H](N)[C@H]1NC(C)=O | – | healthy Indian subjects, fed, plasma | oral, 75 mg oseltamivir phosphate, test capsule formulation | 6.15 ± 1.15 |
| NS(=O)(=O)c1cc(Cl)c(Cl)c(S(N)(=O)=O)c1 | – | healthy volunteers, plasma | oral, 200 mg, single dose, median | 2 |
| CC[C@H](C)[C@@H]1NC(=O)[C@H](CCCNC(=N)N)NC(=O)[C@H](CC(=O)O)NC(=O)[C@H](CC(C)C)NC(=O)[C@H](CCCCN)NC(=O)[C@H](CC(C)C)NC(=O)CNC(=O)[C@H](Cc2ccccc2)NC(=O)[C@@H](NC(=O)CNC(=O)[C@H](CCCCN)NC(=O)[C@H](CO)NC(=O)[C@H](CC(C)C)NC(=O)CNC(=O)[C@H](CCCCN)NC(=O)[C@H](CCCCN)NC(=O)[C@H](CC(N)=O)NC(=O)[C@H](C)NC(=O)CNC(=O)[C@H](CCCCN)NC(=O)[C@H](Cc2ccc(O)cc2)NC(=O)[C@H](CCCCN)NC(=O)[C@H](CCCNC(=N)N)NC(=O)[C@H](C)NC(=O)[C@H](CC(N)=O)NC(=O)[C@@H]2CCCN2C(=O)[C@H](Cc2c[nH]cn2)NC(=O)[C@H](CCC(=O)O)NC(=O)[C@H](CCC(N)=O)NC(=O)CNC(=O)[C@@H]2CCCN2)CSSC[C@@H](C(=O)O)NC(=O)CNC(=O)[C@H](CC(C)C)NC(=O)CNC(=O)[C@H](CO)NC(=O)[C@H](CCSC)NC(=O)[C@H](CO)NC(=O)CNC1=O | ECLA | achondroplasia patients aged 5-18 years, plasma | subcutaneous, 15 µg/kg once daily, day 1 | 0.23 |
| Nc1ncc(-c2cnn(CCO)c2)c2scc(-c3ccc(NC(=O)Nc4cccc(F)c4)cc3)c12 | – | patients, plasma | oral, 320 mg twice weekly, day 1 | 22.7 ± 7.2 |
| CO/N=C1\C[C@]2(C[C@@H]3C[C@@H](C/C=C(\C)C[C@@H](C)/C=C/C=C4\CO[C@@H]5[C@H](O)C(C)=C[C@@H](C(=O)O3)[C@]45O)O2)O[C@H](/C(C)=C/C(C)C)[C@H]1C | HPLC, non-compartmental | Corriedale lambs, parasitized, plasma | subcutaneous, 0.2 mg/kg | 11.3 ± 3.84 |
| C[C@@H](O)[C@H]1C(=O)N2C(C(=O)O)=C(S[C@@H]3CN[C@H](C(=O)N(C)C)C3)[C@H](C)[C@H]12 | – | Danish Landrace pig, plasma | intravenous infusion, 1000 mg over 10 min, with: vancomycin | 0.25 |
| O=C1CCc2ccc(OCCCCN3CCN(c4cccc(Cl)c4Cl)CC3)cc2N1 | – | healthy Japanese men, CYP2D6 IM, plasma | oral, 3 mg aripiprazole single, with: paroxetine 20 mg/day | 2.3 ± 1 |
| CC[C@H](C)[C@H](NC(=O)[C@H](CCC(=O)O)NC(=O)[C@H](CO)NC(=O)[C@@H](NC(=O)[C@@H](N)CO)C(C)C)C(=O)N[C@@H](CCC(N)=O)C(=O)N[C@@H](CC(C)C)C(=O)N[C@@H](CCSC)C(=O)N[C@@H](Cc1cnc[nH]1)C(=O)N[C@@H](CC(N)=O)C(=O)N[C@@H](CC(C)C)C(=O)NCC(=O)N[C@@H](CCCCN)C(=O)N[C@@H](Cc1cnc[nH]1)C(=O)N[C@@H](CC(C)C)C(=O)N[C@@H](CC(N)=O)C(=O)N[C@@H](CO)C(=O)N[C@@H](CCSC)C(=O)N[C@@H](CCC(=O)O)C(=O)N[C@@H](CCCN=C(N)N)C(=O)N[C@H](C(=O)N[C@@H](CCC(=O)O)C(=O)N[C@@H](Cc1c[nH]c2ccccc12)C(=O)N[C@@H](CC(C)C)C(=O)N[C@@H](CCCN=C(N)N)C(=O)N[C@@H](CCCCN)C(=O)N[C@@H](CCCCN)C(=O)N[C@@H](CC(C)C)C(=O)N[C@@H](CCC(N)=O)C(=O)N[C@@H](CC(=O)O)C(=O)N[C@H](C(=O)N[C@@H](Cc1cnc[nH]1)C(=O)N[C@@H](CC(N)=O)C(=O)N[C@@H](Cc1ccccc1)C(=O)O)C(C)C)C(C)C | – | postmenopausal women, osteoporosis, plasma | subcutaneous, 56.5 µg once weekly | 0.573 to 0.685 |
| Cc1nc(-c2ccc(OCC(C)C)c(C#N)c2)sc1C(=O)O | – | healthy men, plasma | oral, 40 mg once daily, day 14, median, with: verinurad 10 mg | 2 |
| CCCOc1ccc([C@H]2CNC(=O)N2c2ccc3[nH]cnc3c2)cc1 | – | non-elderly adults, fasted, plasma | oral, 200 mg twice daily, day 11, oral solution, median | 0.5 |
| CC(C)=CCC[C@](C)(O[C@@H]1O[C@H](CO)[C@@H](O)[C@H](O)[C@H]1O)[C@H]1CC[C@]2(C)[C@@H]1[C@H](O)C[C@@H]1[C@@]3(C)CC[C@H](O[C@@H]4O[C@H](CO)[C@@H](O)[C@H](O)[C@H]4O[C@@H]4O[C@H](CO)[C@@H](O)[C@H](O)[C@H]4O)C(C)(C)[C@@H]3CC[C@]12C | LC-MS/MS | healthy volunteers, serum | oral, 3 g fermented red ginseng | 10.5 ± 3.88 |
| CC(C)(C)c1nc(-c2cccc(NS(=O)(=O)c3c(F)cccc3F)c2F)c(-c2ccnc(N)n2)s1 | – | Japanese patients, plasma | oral, 150 mg twice daily, repeat dosing, median, with: trametinib 2 mg once daily | ~2 |
| CNC(=O)c1ccccc1Sc1ccc2c(/C=C/c3ccccn3)n[nH]c2c1 | – | children and adolescents, refractory solid tumours, plasma | oral, dose not given | ~2 |
| O=C(N[C@H]1CCN(CC2CC2)C[C@@H]1C(=O)NC1(c2ncccn2)CC1)c1cc(-c2ccc(F)cc2F)on1 | – | healthy male subjects | oral, 10 mg, fed, median, with: itraconazole 200 mg multiple doses | 2 |
| COc1ccc2c3c1O[C@H]1C[C@@H](OC(=O)c4ccccc4)C=C[C@@]31CCN(C)C2 | – | healthy elderly men, plasma | intranasal, 22 mg, single dose | 0.6 |
| CCCN1CC(c2ccc(S(C)(=O)=O)cc2)=C(c2ccc(C)cc2)C1=O | – | healthy Chinese, non-elderly, plasma | oral, 100 mg, fasting | 2 |
| CC(=O)Nc1ccc(O)cc1 | – | healthy volunteers, both sexes, plasma | oral, 650 mg, day 2, with: favipiravir, acute | 0.84 |

| SMILES | assay | system | setting | Tmax [h] |
| --- | --- | --- | --- | --- |
| Cc1ccc(Sc2ccccc2N2CCNCC2)c(C)c1 | – | healthy men, plasma | oral, 20 mg once daily, fed, day 1 | 9 |
| Cc1ccc(NC(=O)c2ccc(CN3CCN(C)CC3)cc2)cc1Nc1nccc(-c2cncc(-c3oncc3C)c2)n1 | – | healthy volunteers, plasma | oral, 200 mg once daily, day 1, 7-day dosing, mean | 4 |
| CO[C@H]1C[C@@H]2CC[C@@H](C)[C@@](O)(O2)C(=O)C(=O)N2CCCC[C@H]2C(=O)O[C@H]([C@H](C)C[C@@H]2CC[C@@H](OP(C)(C)=O)[C@H](OC)C2)CC(=O)[C@H](C)/C=C(\C)[C@@H](O)[C@@H](OC)C(=O)[C@H](C)C[C@H](C)/C=C/C=C/C=C/1C | HPLC-MS/MS | Japanese patients, whole blood | oral, 40 mg, day 1, cycle 1, median | 4 |
| CN[C@H](CC(C)C)C(=O)N[C@H]1C(=O)N[C@@H](CC(N)=O)C(=O)N[C@H]2C(=O)N[C@H]3C(=O)N[C@H](C(=O)N[C@H](C(=O)O)c4cc(O)cc(O)c4-c4cc3ccc4O)[C@H](O)c3ccc(c(Cl)c3)Oc3cc2cc(c3O[C@@H]2O[C@H](CO)[C@@H](O)[C@H](O)[C@H]2O[C@H]2C[C@](C)(N)[C@H](O)[C@H](C)O2)Oc2ccc(cc2Cl)[C@H]1O | – | pig (Danish Landrace), plasma | iv infusion, 1000 mg over 100 min, with: meropenem co-administered | 1.53 |
| COc1ccc(-n2nc(C(N)=O)c3c2C(=O)N(c2ccc(N4CCCCC4=O)cc2)CC3)cc1 | – | healthy Chinese subjects | oral, 10 mg single and multiple | 2 to 4 |
| CC(C)=CCC[C@](C)(O[C@@H]1O[C@H](CO)[C@@H](O)[C@H](O)[C@H]1O)[C@H]1CC[C@]2(C)[C@@H]1[C@H](O)C[C@@H]1[C@@]3(C)CC[C@H](O[C@@H]4O[C@H](CO)[C@@H](O)[C@H](O)[C@H]4O)C(C)(C)[C@@H]3CC[C@]12C | LC-MS/MS | healthy volunteers, serum | oral, 3 g fermented red ginseng | 10.8 ± 3.28 |
| C[C@@H](N)c1cc(Cl)ccc1Cn1c(=S)[nH]c(=O)c2[nH]ccc21 | – | healthy Chinese volunteers, plasma | oral, 5 mg once daily, day 1, multiple dose, median | 1.5 |
| CCCCC[C@H](O)CC[C@@H]1[C@H]2Cc3cccc(OCC(=O)O)c3C[C@H]2C[C@H]1O | – | Japanese patients with PAH, plasma | inhaled, 54 µg four times daily, week 12 | 0.22 ± 0.25 |
| CS(=O)(=O)n1cc2c(n1)CN([C@H]1CO[C@H](c3cc(F)ccc3F)[C@@H](N)C1)C2 | – | healthy Japanese men, plasma | oral, 25 mg once weekly, day 1 | 0.5 |
| C[C@]12C=CC(=O)C=C1CC[C@@H]1[C@@H]2[C@@H](O)C[C@@]2(C)[C@H]1C[C@H]1O[C@@H](C3CCCCC3)O[C@]12C(=O)CO | – | children with asthma, serum | inhaled, 80 µg ciclesonide, day 7, HFA-MDI with spacer | 0.7 ± 0.048 |
| COc1cc(OC)c(/C=C/S(=O)(=O)Cc2ccc(OC)c(NCC(=O)O)c2)c(OC)c1 | – | cancer patients, phase I, plasma | oral, 700 mg twice daily, day 1 cycle 1 | 1.14 ± 0.48 |
| C[C@H]1Oc2cc(cnc2N)-c2c(nn(C)c2C#N)CN(C)C(=O)c2ccc(F)cc21 | – | healthy adults | oral, 100 mg single dose, fasted, median | ≤ 2 |
| CCOc1ccc(Cc2cc([C@@H]3S[C@H](CO)[C@@H](O)[C@H](O)[C@H]3O)c(OC)cc2C)cc1 | – | Japanese type 2 diabetes patients, plasma | oral, 5 mg single dose, eGFR below 30 mL/min/1.73 m^2, median | 1.5 |
| NC(=S)NN=Cc1ncccc1N | – | human, serum | oral, 100 mg | 2 |
| C=C(C)[C@@H]1CC[C@]2(NCCN3CCS(=O)(=O)CC3)CC[C@]3(C)[C@H](CC[C@@H]4[C@@]5(C)CC=C(C6=CC[C@@](CF)(C(=O)O)CC6)C(C)(C)[C@@H]5CC[C@]43C)[C@@H]12 | – | healthy adults, plasma | oral, 200 mg once daily, day 7, with: dolutegravir 50 mg | 5 |
| NC(=O)c1cnc2[nH]ccc2c1N[C@@H]1[C@@H]2CC3C[C@H]1C[C@@](O)(C3)C2 | – | healthy Caucasian men, plasma | oral, 200 mg, single dose fasted median | 1.8 |
| CC1=C2C[C@H]3[C@@H](CC[C@@H]4C[C@H](NS(C)(=O)=O)CC[C@@]43C)[C@@H]2CC[C@@]2(C1)O[C@@H]1C[C@H](C)CN[C@H]1[C@H]2C | – | patients, plasma | oral, 160 mg daily, day 22, cycle 1 | 4.99 |
